Experimental data of several laboratories.
Parts stem from different laboratories: compare values within a part only.

Block 1
Target: Prothrombin, mature alpha-thrombin (F2, Homo sapiens, UniProt P00734)
Technique: aptamer microarray, sandwich
Form: DNA with 2'F-ANA
Sample: in vitro
Concentration: 200 nM
Setting: whole 15-mer aptamer, many near background
With: Cy3 exosite-II aptamer, 400 nM
Reading: higher = stronger binding
Endpoint: mean fluorescence intensity
GGTTGGTGTGGTTGG (2'F-ANA at 1 3 4 5 7 8 12 13 14): 50.1 a.u.
GGTTGGTGTGGTTGG (2'F-ANA at 1 2 3 4 6 9 10 11 13): 55.7 a.u.
GGTTGGTGTGGTTGG (2'F-ANA at 4 5 7 8 9 10 12 13 14): 48.9 a.u.
GGTTGGTGTGGTTGG (2'F-ANA at 1 3 4 6 7 14 15): 69.2 a.u.

Block 2
Target: RING finger protein unkempt homolog, zinc fingers 1-6, GST-SBP tag (UNK, Homo sapiens, UniProt Q9C0B0, residues 30-357)
Sequence of UniProt Q9C0B0 (30-357, looked up): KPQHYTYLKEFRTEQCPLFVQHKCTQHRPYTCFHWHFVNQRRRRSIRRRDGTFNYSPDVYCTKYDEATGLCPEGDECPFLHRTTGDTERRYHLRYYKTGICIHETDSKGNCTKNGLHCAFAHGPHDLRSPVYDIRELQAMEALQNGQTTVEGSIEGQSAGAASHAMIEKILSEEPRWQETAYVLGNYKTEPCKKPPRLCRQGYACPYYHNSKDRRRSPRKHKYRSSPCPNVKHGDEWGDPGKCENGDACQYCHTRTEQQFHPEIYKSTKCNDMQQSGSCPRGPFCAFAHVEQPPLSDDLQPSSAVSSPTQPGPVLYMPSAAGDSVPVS
Technique: RNA Bind-n-Seq
Form: RNA
Sample: in vitro
Concentration: not given
Setting: RNA with constant flanks, human and mouse sites, ends assumed
Reference: input RNA pool
Reading: higher = stronger binding
Endpoint: bound/input enrichment
GGGAGUUCUACAGUCCGACGAUCCUCCGAGCUGCUAAUAUUCUUGUAGGAGAAAAUCUUAUAUGCAAAAUAGCAGAUUUUGGCUUAGCAAGAUUAAUUGAAGACAAUGAAUACACGGCAAGACAAGGUGCAAAAUUUCCAAUCCAACAGAGGAUUGAGCAUCA: 0.146 ratio
GGGAGUUCUACAGUCCGACGAUCGUCAUUGAUGUCCUUCACCCCGGGAAGGCGACAGUGCCUAAGACAGAAAUUCGGGAAAAACUAGCCAAAAUGUACAAGACCACACCGGAUGUCAUCUUUGUAUUUGGAUUCAGAACUCAUCAACAGAGGAUUGAGCAUCA: 0.621 ratio
GGGAGUUCUACAGUCCGACGAUCCUUUUUGAAUCUUUCAAGAGUUUUGAAGGUCUCUUUUAUUUUCUGGGAUCCAUUGUUAACUUUAGCCAGGACCCAGAUGUGCACUUUAAAUAUAUUCAGGCAGCUUGCAAGACUGGGCAACAACAGAGGAUUGAGCAUCA: 0.4 ratio
GGGAGUUCUACAGUCCGACGAUCAAUCAUGCUUCUACAAGGUGAAGUGUGUUUGGGGAAACUGAGCUCUAACAAAAGCCGCGACAGCCACCAGGCAGGCUUUUCCUUAUACAUGACAGAAGUUCGUAUUACGCCUUGGAAGGUCAACAGAGGAUUGAGCAUCA: 0.161 ratio

Block 3
Target: Histone acetyltransferase KAT6A, winged helix 1, GST fusion (KAT6A, Homo sapiens, UniProt Q92794, residues 1-85)
Technique: protein binding microarray
Form: double-stranded DNA, one strand shown
Sample: in vitro
Concentration: not given
Setting: 8-mer, flanks averaged, mean of 2 arrays, mostly near background
Reference: not given
Reading: higher = stronger binding
Endpoint: E-score
Residues (chain): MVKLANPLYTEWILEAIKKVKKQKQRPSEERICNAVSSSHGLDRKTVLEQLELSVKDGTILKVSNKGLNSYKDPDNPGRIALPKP
GGTGTGTA: -0.109
GCTCTCGA: -0.156
CCTAATCA: -0.138
CAATCGGC: 0.162

Single results of other studies
PhoQ, residues 284 288 289 292 302 303 SSTLSG — fold induction (PhoP, residues 12 14 15 18 19 LWHVM (Escherichia coli, UniProt P23836); Sort-seq, refers to: YFP reporter; E. coli; PhoQ-PhoP variant library, with: 10 µM Mg2+; reference: high Mg2+ state, higher = stronger signaling): 10.2

Repeated from above (block 3):
GCTCTCGA: -0.156
